Experimental data of several laboratories.
Every numbered part comes from another study and shows a few of its results, in no order. Substitutions count along the parent as printed.

Block 1
Target: CCNE2, cyclin fold, Cln2 fusion (human)
Method: yeast growth competition, sequencing
Sample: yeast
Notes: weak parent motif
Baseline: not given
Direction: higher = stronger binding
Parent: SAMHD1 docking peptide (human); ASKSRVQLFKDDP; partner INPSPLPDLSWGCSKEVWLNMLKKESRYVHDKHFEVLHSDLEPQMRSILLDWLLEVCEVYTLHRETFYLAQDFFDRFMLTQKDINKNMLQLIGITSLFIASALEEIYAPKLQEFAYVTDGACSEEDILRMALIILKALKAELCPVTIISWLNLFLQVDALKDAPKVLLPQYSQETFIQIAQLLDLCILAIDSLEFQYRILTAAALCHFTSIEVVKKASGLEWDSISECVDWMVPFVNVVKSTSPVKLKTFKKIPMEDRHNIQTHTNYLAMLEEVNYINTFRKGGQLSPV
`F9V` — result for “normalised enrichment score”: 0.0982.
Under “normalised enrichment score”, `L8G` is recorded as 0.179.
`V6C` — result for “normalised enrichment score”: 0.175.
For `S2C`, “normalised enrichment score” read -0.131.
`K10H` — result for “normalised enrichment score”: 0.188.
Under “normalised enrichment score”, `D11I` is recorded as 0.113.
`R5H` — result for “normalised enrichment score”: 0.0687.
`S2F`: “normalised enrichment score” 0.228.
`S2N` — result for “normalised enrichment score”: 0.174.
`S2T`: “normalised enrichment score” -0.14.
`L8C` — result for “normalised enrichment score”: 0.111.
`K3D` — result for “normalised enrichment score”: -0.297.
`Q7A` — result for “normalised enrichment score”: -0.33.
Under “normalised enrichment score”, `D11R` is recorded as 0.561.
`K10Q`: “normalised enrichment score” 0.108.
`R5M` — result for “normalised enrichment score”: -0.177.

Block 2
Target: Sal-like protein 4, full length isoform A (SALL4, Homo sapiens, UniProt Q9UJQ4, residues 1-1053)
Sequence of UniProt Q9UJQ4 (whole entry, looked up): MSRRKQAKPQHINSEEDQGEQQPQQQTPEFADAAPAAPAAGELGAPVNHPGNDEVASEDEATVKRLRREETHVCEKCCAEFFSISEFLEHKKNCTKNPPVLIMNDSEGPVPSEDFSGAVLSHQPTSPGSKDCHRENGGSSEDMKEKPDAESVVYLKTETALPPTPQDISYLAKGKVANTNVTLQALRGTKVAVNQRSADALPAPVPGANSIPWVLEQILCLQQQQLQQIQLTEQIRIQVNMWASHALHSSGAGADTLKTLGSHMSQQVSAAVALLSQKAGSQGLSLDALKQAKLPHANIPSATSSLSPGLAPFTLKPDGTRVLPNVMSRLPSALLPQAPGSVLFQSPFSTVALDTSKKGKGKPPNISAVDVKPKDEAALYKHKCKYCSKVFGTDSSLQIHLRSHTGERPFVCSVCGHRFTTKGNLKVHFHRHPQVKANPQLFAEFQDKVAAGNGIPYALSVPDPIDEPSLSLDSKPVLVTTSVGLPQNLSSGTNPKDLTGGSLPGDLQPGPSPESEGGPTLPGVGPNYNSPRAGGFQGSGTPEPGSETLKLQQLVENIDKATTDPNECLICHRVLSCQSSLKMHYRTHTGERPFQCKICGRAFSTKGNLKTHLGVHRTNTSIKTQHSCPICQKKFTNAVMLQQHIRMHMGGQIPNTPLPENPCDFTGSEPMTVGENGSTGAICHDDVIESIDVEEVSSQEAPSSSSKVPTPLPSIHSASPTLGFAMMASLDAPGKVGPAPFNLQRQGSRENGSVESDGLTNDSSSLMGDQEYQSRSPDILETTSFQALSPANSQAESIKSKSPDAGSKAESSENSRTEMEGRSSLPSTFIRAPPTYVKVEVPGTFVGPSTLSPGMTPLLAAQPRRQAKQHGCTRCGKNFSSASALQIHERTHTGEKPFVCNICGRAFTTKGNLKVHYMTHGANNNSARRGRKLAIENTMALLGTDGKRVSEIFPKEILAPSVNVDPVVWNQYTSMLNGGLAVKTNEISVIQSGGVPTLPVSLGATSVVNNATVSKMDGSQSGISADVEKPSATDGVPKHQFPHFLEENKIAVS
Method: universal PBM
Form: double-stranded DNA, one strand shown
Sample: in vitro
Tested at: 600 nM
Notes: 8-mer, flanks averaged, mean of replicates
Direction: higher = stronger binding
The E-score of `ACTACCCC` is reported as -0.115.
With `AGTCTCGG` the E-score was -0.284.
`AACACAAG` gave an E-score of -0.0279.
`CTTATGCC` has an E-score of 0.101.
`CCGTGGCG` has an E-score of -0.328.
The E-score of `ACGCTCTA` is reported as -0.186.
The E-score of `CGGTTACA` is reported as 0.052.
For `AGATTCTC`, the E-score was -0.0528.
With `ATCAAGAC` the E-score was -0.012.
`CAGAAGAA` gave an E-score of -0.0863.
For `CTCCTCCA`, the E-score was -0.0888.
For `GATCGAGC`, the E-score was -0.0822.
`ATGCACTC` gave an E-score of 0.000655.
The E-score of `GATACTGC` is reported as -0.0177.
For `CCGACCTA`, the E-score was -0.151.
The E-score of `AAAGTGAA` is reported as 0.233.
The E-score of `CCCAACCA` is reported as -0.0898.
The E-score of `AAGAACGG` is reported as -0.174.
For `AAATGAAG`, the E-score was 0.224.
With `CCCCTCAC` the E-score was -0.261.
`CTGTCTTA` has an E-score of 0.106.
`CATGCCGG` gave an E-score of -0.0973.

Block 3
Target: RNA binding protein fox-1 homolog 2, RRM domain, GST-SBP tag (RBFOX2, Homo sapiens, UniProt O43251-10, residues 100-194)
Method: RNA Bind-n-Seq
Form: RNA
Sample: in vitro
Tested at: 365 nM
Notes: natural RNA segment, single round, ends assumed
Baseline: no-protein control
Direction: higher = stronger binding
Construct (chain): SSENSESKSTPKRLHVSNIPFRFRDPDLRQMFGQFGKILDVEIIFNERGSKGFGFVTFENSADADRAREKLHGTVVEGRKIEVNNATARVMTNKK
`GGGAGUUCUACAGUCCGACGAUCUUUUUUUUUUUUUCUGGCCGAAGACAUAUACCCAAGAACAAGAGAUACCUUUAAGCCAGUGAAGGAUACUUGCGAUAGAAUCAUCCGCAACUCAGUGGCCAUUCUUCUGCUGGAAUUCUCGGGUGCCAA`: “RBNS enrichment (R)” 0.563.
`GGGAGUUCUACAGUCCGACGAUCCAGGCCAUAACAGGGUAGAAGAGAGACAUCGUGCAACCCAAUGAGUAGUGAAGGGACUGUGUUGCUUGUGAAGCGGUGUAGUAGCAUUUUUGCAGAUUCUUGGCUGGGUUUGGAAUUCUCGGGUGCCAA`: “RBNS enrichment (R)” 1.27.
`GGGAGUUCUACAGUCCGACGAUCCAUGUAAGCAGCAAAGGGGCGUAAGUAGCCACGAGGCACCUCGCAUGCCUUCUUCAGUGGCUGAGGGAUGACAAGCAGGACUUCCUGAGAGUCAGUCUGAAGAGAACACAUGGAAUUCUCGGGUGCCAA`: “RBNS enrichment (R)” 1.19.
For `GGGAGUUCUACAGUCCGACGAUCAGAGGCAGGAAGAGUUUUGAUUCUAUCCUUUUUUACUAAACAGUUUUAUUAUGACACUAGAUACAGUAAAUUUUUAGAAAAAAAUACCAUUUACAGUAUUAUUGUGAACCUGGAAUUCUCGGGUGCCAA`, “RBNS enrichment (R)” read 0.519.
`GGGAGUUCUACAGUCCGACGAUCCGUGGGAUUGCUUCCACCAGUGUGUUUCUGAGACUUCUCCUUAUCUUCCAGGCCAAAGUAUGUUGCUGCUUCCUGUCUCCACUGGUCCCCACCUACCCUGGCACUUGCCCUGGAAUUCUCGGGUGCCAA` — result for “RBNS enrichment (R)”: 0.48.
`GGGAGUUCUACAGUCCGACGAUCUCCCCGGUUCUGGAAAUCAUGUUCUCCUCACUCAUGGUGACAAGCUAAGAAAGCUGAACAAAGGGAGAGACGAGAGCGCCUGAAGCCAGGAGCUCCUUUACUAUCUUUCUUGGAAUUCUCGGGUGCCAA`: “RBNS enrichment (R)” 0.243.
`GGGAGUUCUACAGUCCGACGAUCCCCCCUGUCUCUCCUCAGCAGUCUGAGUGCAACCCCGUCGGUGCUCUGCAGGAGCUGGUGGUGCAAAAAGGCUGGCGUUUGCCAGAGUACAUGGUGACCCAAGAGUCUGGUGGAAUUCUCGGGUGCCAA` — result for “RBNS enrichment (R)”: 0.672.
`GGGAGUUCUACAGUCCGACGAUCAUAUAAUAUGAAAUGCUAUGUAAAGUUUUCUAUGUAAAAAUAUUAUGUAUAAUACUAUUAAAAUAUCCCAUGCUUUGAUCAGGUGGUACAUCAAUAAAAUUUUAAAAAGUUGGAAUUCUCGGGUGCCAA` — result for “RBNS enrichment (R)”: 0.656.
`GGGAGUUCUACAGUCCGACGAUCCAUUUUAAAGCCUGCUGAUAACUGAGGAGGGCUAAUGAGAUAGGUUUGCUCGUCUGUAAUAGUUAUGUAUGAAGGACUCUUAAUUGCAACUGAAAAGGUCGUGUAUAGGUUGGAAUUCUCGGGUGCCAA` — result for “RBNS enrichment (R)”: 1.25.
`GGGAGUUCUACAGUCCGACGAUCAAGCCCGAGUCAGGGCACUUGUUAUUUAAAUGUGCCAUUUCCCAGGUUGCCACCCUUCAUAGAGUUUAGGCAUGCAGUUUGCUUAGCCAGUGUAGGAAGCCUCAUGAGAAUGGAAUUCUCGGGUGCCAA`: “RBNS enrichment (R)” 0.44.
For `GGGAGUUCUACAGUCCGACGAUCAAGGGACGUGGGUUUGAAGGCAGCAGCAGUGCUUACUUAACCUGCAUUUCAGCAUUUGGCAAGUUCUCUCUUGCUGGCGUCAGAGUAGCUGGCCCAGCUCUUAGCUUGUUUGGAAUUCUCGGGUGCCAA`, “RBNS enrichment (R)” read 0.674.
Under “RBNS enrichment (R)”, `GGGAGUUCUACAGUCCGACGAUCGGGAAGGGAGAUCACCACGUCCACAGAAUCACUACAUUUAGAGUUGAGCUCUCAGUUGUACCUCCAACCCCUUUCUCCGGGACCAGCUAUGUGGUCCAGCUGUUUUAAUUUGGAAUUCUCGGGUGCCAA` is recorded as 0.399.

Further values, each from its own experiment
`PhoQ, residues 284 288 289 292 302 303 SSTLSG` gave a fold induction of 4.82 (PhoP, residues 12 14 15 18 19 TPLRH (Escherichia coli, UniProt P23836); Sort-seq, item: YFP reporter; E. coli; PhoQ-PhoP variant library, with: 10 µM Mg2+; baseline: high Mg2+ state, higher = stronger signaling).

Excerpt of the above (block 3):
`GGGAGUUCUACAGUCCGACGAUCUUUUUUUUUUUUUCUGGCCGAAGACAUAUACCCAAGAACAAGAGAUACCUUUAAGCCAGUGAAGGAUACUUGCGAUAGAAUCAUCCGCAACUCAGUGGCCAUUCUUCUGCUGGAAUUCUCGGGUGCCAA`: “RBNS enrichment (R)” 0.563.
`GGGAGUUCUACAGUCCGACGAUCCAGGCCAUAACAGGGUAGAAGAGAGACAUCGUGCAACCCAAUGAGUAGUGAAGGGACUGUGUUGCUUGUGAAGCGGUGUAGUAGCAUUUUUGCAGAUUCUUGGCUGGGUUUGGAAUUCUCGGGUGCCAA`: “RBNS enrichment (R)” 1.27.
`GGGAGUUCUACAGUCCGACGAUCCAUGUAAGCAGCAAAGGGGCGUAAGUAGCCACGAGGCACCUCGCAUGCCUUCUUCAGUGGCUGAGGGAUGACAAGCAGGACUUCCUGAGAGUCAGUCUGAAGAGAACACAUGGAAUUCUCGGGUGCCAA`: “RBNS enrichment (R)” 1.19.
